Measurements collected from several papers.
Numbered parts are unrelated; each lists some results of a single study.
UniProt P48729, sequence (whole entry, looked up): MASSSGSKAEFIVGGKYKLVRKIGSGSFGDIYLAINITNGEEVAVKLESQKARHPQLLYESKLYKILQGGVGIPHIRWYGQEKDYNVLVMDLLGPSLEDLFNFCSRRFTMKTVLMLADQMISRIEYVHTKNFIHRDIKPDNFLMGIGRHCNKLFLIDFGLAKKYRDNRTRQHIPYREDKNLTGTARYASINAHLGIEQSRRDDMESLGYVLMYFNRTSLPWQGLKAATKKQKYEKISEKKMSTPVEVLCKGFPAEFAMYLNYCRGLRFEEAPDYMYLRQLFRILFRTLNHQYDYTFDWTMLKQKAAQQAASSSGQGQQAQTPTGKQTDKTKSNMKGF
UniProt Q12851, sequence (whole entry, looked up): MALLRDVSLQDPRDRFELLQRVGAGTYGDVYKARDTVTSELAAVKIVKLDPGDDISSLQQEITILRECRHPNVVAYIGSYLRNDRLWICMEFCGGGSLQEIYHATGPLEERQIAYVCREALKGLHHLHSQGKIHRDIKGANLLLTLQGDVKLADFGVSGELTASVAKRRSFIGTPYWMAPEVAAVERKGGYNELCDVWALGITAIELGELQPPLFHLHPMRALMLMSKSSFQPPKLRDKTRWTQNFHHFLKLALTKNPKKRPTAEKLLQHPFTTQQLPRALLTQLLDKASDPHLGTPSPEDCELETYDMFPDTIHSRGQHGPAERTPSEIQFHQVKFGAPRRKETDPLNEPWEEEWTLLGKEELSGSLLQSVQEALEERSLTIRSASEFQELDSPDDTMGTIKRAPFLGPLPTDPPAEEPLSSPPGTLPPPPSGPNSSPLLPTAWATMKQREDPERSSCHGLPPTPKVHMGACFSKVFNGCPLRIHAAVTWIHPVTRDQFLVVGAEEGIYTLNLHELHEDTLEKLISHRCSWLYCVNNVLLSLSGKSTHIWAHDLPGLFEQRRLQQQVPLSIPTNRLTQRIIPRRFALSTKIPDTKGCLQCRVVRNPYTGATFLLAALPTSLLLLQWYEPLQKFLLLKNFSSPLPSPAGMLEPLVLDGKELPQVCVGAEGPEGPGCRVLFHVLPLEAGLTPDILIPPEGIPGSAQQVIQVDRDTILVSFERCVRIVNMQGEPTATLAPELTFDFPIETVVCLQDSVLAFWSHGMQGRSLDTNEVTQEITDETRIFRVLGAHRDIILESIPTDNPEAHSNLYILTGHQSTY
UniProt O15264, sequence (whole entry, looked up): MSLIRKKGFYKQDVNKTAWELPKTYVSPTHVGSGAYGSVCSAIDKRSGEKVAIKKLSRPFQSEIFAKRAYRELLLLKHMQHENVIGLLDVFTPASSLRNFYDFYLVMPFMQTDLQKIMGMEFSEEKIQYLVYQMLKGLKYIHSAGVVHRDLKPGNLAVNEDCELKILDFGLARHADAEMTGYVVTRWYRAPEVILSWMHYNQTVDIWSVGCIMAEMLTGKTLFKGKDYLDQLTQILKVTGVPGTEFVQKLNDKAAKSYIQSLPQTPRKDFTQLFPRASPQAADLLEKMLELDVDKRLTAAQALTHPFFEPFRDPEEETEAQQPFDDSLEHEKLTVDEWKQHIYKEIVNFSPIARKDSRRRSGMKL

Set 1
Target: 5-hydroxytryptamine receptor 7 (HTR7, Homo sapiens, UniProt P34969)
UniProt P34969, sequence (whole entry, looked up): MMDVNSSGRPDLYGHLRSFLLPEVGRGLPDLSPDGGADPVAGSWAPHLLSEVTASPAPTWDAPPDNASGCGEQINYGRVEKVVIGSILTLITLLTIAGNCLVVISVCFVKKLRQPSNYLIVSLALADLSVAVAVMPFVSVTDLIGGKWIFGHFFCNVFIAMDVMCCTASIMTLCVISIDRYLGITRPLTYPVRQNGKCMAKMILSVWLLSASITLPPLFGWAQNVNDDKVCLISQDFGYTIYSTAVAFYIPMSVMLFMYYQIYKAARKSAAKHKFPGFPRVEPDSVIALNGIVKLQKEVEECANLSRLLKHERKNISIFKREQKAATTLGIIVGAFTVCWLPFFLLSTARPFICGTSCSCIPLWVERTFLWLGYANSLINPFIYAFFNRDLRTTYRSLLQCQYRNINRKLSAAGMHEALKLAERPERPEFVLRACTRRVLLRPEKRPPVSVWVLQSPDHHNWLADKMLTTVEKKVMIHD
Effect on: binding
Method: radioligand binding
Tested at: 10 µM
For `O[C@]1(C(F)(F)F)CCCC[C@H]1Nc1ccc(F)cc1`, the inhibition was -29.1%.
`C[C@@]1(Cc2ccc(C#N)cc2)C(=O)N(c2cc(Cl)cc(Cl)c2)c2ncc(C(=O)NC3(c4nc(C5CCC5)no4)CC3)n21` gave an inhibition of 4.18%.
`Cc1c(NC(=O)c2cc(C(N)=O)nc3cc(F)ccc23)c(C(F)(F)F)nn1Cc1ccc(C(C)(C)C)cc1` gave an inhibition of -19.1%.
For `COc1ccc2c(c1)O[C@@H](c1ccc(OC)c(OC)c1)C[C@H]2NC(=O)C1(c2ccc3c(c2)OC(F)(F)O3)CC1`, the inhibition was -21.8%.
`CN(C)C(=O)Cn1cc(-c2nc([C@@](C)(c3ccc(-c4cnc(N)nc4)cc3)C3CC3)no2)cn1` gave an inhibition of -27.7%.
The inhibition of `C[C@@H]1CN(c2cc(-c3nn(C)c4ccc(OC5(C)CC5)cc34)ncn2)C[C@H](C)O1` is reported as -0.4%.
With `O=C1c2ccc(Nc3ccc(F)cc3F)cc2CCc2ccc(OC[C@H](O)CO)cc21` the inhibition was -9.25%.
`COc1nc2ccc([C@@](O)(c3ccccc3)C3CCN(C(C)=O)CC3)cc2c(Cl)c1Cc1ccc(-n2cccn2)cc1` gave an inhibition of -2.29%.
For `CN1C(=O)[C@@H](N2CCc3cn(Cc4ccccc4)nc3C2=O)COc2ccccc21`, the inhibition was -1.17%.
`CCOC(=O)c1cc2cc(-c3cc(C(=O)NCc4ccc(C(=O)O)cc4)nn3C)ccc2[nH]1` has an inhibition of 5.88%.
`CN([C@@H]1CCc2c(CC(=O)O)c3cc(S(C)(=O)=O)ccc3n2C1)S(=O)(=O)c1ccc(F)cc1` gave an inhibition of -3.44%.
`CC(=O)N1CCC(c2ccc(C(=O)NC(=N)N)cc2C(F)(F)F)CC1` gave an inhibition of 16.3%.
`CCOCCn1cc(C(=O)Nc2ccc(-n3nc(-c4cccnc4)cc3C(F)(F)F)cn2)ccc1=O` has an inhibition of -4.22%.
With `COc1cccc(CNC(=O)c2nc3scc(COCc4ccc(C(=O)O)cc4)c3c(=O)[nH]2)c1` the inhibition was -13.9%.
`CN1CCN(C(=O)C(C)(C)c2ccc(C(=O)Nc3cn4cc(-c5ccncc5)ccc4n3)cc2)CC1` gave an inhibition of -5.21%.
With `COCc1nc2cnc3cc(-c4c(C)noc4C)c(OC[C@H]4CCNC4)cc3c2n1[C@H](C)c1ccccc1` the inhibition was -5.39%.
The inhibition of `CC(C)CC(=O)N1CCc2nc(-c3ccc(Br)cc3)nc(N(C)Cc3ccccc3)c2C1` is reported as 64.5%.
`O=C(NC[C@@H]1[C@H]2CN(C(=O)OCc3cc(C(F)(F)F)cc(C(F)(F)F)c3)C[C@@H]12)c1ccc2[nH]nnc2c1` gave an inhibition of 19%.
The inhibition of `O=C([C@H]1C[C@H](O)CN1c1ccc(Cl)cc1)N1CC2COCC(C1)N2Cc1ccc(Cl)cc1` is reported as -13.8%.
`Cc1c[nH]c2nccc(Oc3c(F)cc(Nc4cc(Cl)nc(N)n4)cc3F)c12` has an inhibition of 9.29%.
The inhibition of `O=C(Nc1ccc(-n2nc(-c3cccnc3)cc2C(F)(F)F)cn1)c1ccc(-c2ccccc2)c(F)c1` is reported as 6.21%.
For `O=C(Nc1cccnn1)N1CC(CC=Cc2cncc(Oc3ccc(C(F)(F)F)cn3)n2)C1`, the inhibition was 1.18%.
`Cc1nc(C2CCN(C(=O)c3ccc(OC(F)(F)F)cc3N)CC2)c2ncc(N3CCN(C)CC3)cc2n1` gave an inhibition of -0.78%.
With `Cc1nccc(COC(=O)N2C[C@@H]3[C@@H](CNC(=O)c4ccc5[nH]nnc5c4)[C@@H]3C2)n1` the inhibition was 9.56%.
`CCCOc1ccc([C@H]2[C@H](C(=O)O)[C@@H](c3ccc4c(c3)OCO4)CN2CC(=O)Nc2c(CC)cccc2CC)cc1` has an inhibition of -3.72%.

Set 2
Compound: Nc1nc(Nc2ccc(S(N)(=O)=O)cc2)nn1C(=O)c1c(F)cccc1F
Effect on: enzyme activity
Mode: inhibitor
Tested at: 0.5 µM
Baseline: control
CSNK2A1 (Homo sapiens, UniProt P68400) — remaining activity: 104%.
For PRKCI (Homo sapiens, UniProt P41743): remaining activity read 87.6%.
For NEK4 (Homo sapiens, UniProt P51957): remaining activity read 79.2%.
It gave 77.8% for remaining activity (MAP3K10 (Homo sapiens, UniProt Q02779)).
For PLK2 (Homo sapiens, UniProt Q9NYY3): remaining activity read 94.2%.
IRAK4 (Homo sapiens, UniProt Q9NWZ3) — remaining activity: 151%.
It gave 86.1% for remaining activity (PRKG1 (Homo sapiens, UniProt Q13976)).
For EPHA5 (Homo sapiens, UniProt P54756): remaining activity read 92.2%.
It gave 48.3% for remaining activity (LRRK2 (Homo sapiens, UniProt Q5S007)).
LYN (Homo sapiens, UniProt P07948) — remaining activity: 80.5%.
The remaining activity was 89.9% (MAPK12 (Homo sapiens, UniProt P53778)).
It gave 94.8% for remaining activity (MAPK13 (Homo sapiens, UniProt O15264)).
Cyclin-dependent kinase 9, with cyclin T1 (CDK9, Homo sapiens, UniProt P50750) — remaining activity: 27.6%.
For BTK (Homo sapiens, UniProt Q06187): remaining activity read 87.1%.
It gave 95% for remaining activity (AKT3 (Homo sapiens, UniProt Q9Y243)).
For PRKCD (Homo sapiens, UniProt Q05655): remaining activity read 81.2%.
The remaining activity was 95.1% (CSNK1A1 (Homo sapiens, UniProt P48729)).
It gave 76.3% for remaining activity (CHEK1 (Homo sapiens, UniProt O14757)).
The remaining activity was 58.4% (MAP4K2 (Homo sapiens, UniProt Q12851)).

Set 3
Target: DNA polymerase theta, helicase domain (POLQ, Homo sapiens, UniProt O75417)
UniProt O75417, sequence (whole entry, looked up): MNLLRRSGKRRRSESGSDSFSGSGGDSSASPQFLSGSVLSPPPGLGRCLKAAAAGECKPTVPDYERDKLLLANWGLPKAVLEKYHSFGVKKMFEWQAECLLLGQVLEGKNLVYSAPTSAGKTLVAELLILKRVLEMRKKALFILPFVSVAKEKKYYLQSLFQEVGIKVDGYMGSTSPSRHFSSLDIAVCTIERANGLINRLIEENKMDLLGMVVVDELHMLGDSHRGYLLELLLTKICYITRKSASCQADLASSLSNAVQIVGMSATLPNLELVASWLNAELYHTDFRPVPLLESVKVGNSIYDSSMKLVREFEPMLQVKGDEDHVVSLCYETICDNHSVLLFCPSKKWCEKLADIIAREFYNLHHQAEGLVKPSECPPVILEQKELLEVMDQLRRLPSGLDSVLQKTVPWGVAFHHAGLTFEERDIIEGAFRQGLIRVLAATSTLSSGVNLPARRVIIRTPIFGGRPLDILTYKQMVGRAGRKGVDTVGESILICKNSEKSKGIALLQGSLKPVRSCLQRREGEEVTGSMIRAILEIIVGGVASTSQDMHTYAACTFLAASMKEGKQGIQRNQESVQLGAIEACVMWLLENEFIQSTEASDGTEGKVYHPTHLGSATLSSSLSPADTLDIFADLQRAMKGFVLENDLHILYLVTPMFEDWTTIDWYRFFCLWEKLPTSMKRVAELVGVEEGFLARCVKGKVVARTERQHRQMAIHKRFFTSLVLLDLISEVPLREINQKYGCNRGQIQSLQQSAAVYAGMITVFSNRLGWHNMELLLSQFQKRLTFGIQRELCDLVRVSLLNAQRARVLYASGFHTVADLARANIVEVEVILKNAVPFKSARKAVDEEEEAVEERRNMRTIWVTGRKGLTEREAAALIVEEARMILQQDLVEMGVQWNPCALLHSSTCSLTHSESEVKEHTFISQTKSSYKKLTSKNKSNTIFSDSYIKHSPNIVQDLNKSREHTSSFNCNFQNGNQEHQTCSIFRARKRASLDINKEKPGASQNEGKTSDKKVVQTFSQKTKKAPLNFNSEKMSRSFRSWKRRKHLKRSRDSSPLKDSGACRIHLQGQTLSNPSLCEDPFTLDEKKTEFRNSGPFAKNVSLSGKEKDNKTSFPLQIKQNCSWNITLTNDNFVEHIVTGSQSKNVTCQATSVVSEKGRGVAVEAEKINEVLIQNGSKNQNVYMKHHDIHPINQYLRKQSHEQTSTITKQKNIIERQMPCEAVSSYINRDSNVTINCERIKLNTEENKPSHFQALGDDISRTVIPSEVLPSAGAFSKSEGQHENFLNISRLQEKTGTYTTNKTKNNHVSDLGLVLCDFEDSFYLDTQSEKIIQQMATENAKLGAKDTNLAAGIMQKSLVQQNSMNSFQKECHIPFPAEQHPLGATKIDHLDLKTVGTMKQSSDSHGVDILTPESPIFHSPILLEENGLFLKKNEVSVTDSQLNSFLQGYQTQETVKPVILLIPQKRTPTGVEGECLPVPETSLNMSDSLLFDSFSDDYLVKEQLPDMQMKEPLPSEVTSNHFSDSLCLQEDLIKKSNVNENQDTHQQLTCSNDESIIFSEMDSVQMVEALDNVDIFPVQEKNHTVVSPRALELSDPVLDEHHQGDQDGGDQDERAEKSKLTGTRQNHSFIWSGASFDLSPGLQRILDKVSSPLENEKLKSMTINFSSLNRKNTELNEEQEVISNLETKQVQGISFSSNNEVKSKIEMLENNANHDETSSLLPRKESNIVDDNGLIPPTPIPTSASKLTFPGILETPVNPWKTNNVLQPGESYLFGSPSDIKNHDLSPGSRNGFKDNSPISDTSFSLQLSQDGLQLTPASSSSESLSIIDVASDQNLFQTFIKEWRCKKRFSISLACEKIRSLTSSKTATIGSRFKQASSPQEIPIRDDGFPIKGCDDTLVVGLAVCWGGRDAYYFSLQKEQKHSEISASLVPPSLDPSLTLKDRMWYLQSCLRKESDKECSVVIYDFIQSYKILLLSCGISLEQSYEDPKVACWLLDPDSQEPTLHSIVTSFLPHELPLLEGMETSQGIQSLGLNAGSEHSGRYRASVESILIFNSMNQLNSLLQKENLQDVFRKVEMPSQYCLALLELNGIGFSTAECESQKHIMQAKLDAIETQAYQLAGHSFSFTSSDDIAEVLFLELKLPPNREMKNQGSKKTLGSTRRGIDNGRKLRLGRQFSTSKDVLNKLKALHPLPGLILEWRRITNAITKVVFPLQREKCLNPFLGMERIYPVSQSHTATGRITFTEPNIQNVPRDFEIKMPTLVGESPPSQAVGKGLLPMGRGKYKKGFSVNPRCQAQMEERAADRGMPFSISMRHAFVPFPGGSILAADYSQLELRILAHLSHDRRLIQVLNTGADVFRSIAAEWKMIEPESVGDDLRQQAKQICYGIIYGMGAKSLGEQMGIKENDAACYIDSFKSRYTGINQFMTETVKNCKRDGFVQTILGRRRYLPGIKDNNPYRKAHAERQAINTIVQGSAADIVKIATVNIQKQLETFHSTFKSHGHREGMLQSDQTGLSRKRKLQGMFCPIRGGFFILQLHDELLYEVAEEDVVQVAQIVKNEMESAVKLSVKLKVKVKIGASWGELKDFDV
Effect on: enzyme activity
Tested at: concentration not given
Setting: without ssDNA
`Cc1ccccc1C(=O)Nc1sc2c(c1C(=O)O)CCC(C(C)(C)C)C2` (centres unmarked) gave a remaining activity of 30.4%.
`CCCCCCCCCCCCc1ccc(S(=O)(=O)Nc2nncs2)cc1` gave a remaining activity of 92.4%.
The remaining activity of `O=C(Nc1ccccc1C(=O)O)c1cccc(S(=O)(=O)N2CCCC2)c1` is reported as 54.6%.
The remaining activity of `COc1cccc2c1C(=O)c1c(O)c3c(c(O)c1C2=O)C[C@@](O)(C(=O)CO)C[C@@H]3O[C@H]1C[C@H](N)[C@@H](O)[C@H](C)O1` is reported as 97.9%.
The remaining activity of `CC1(C)Cc2c(-c3ccccc3)c(-c3ccc(Cl)cc3)c(CC(=O)O)n2C1` is reported as 50.4%.
With `COc1ccc2c(c1)c(CC(=O)O)c(C)n2Cc1ccc(Cl)cc1` the remaining activity was 64%.
For `CSc1ccc(/C=C/c2nc3ccccc3n2S(=O)(=O)c2cccc(Cl)c2)cc1`, the remaining activity was 65.5%.
The remaining activity of `O=C1c2c(O)ccc(O)c2C(=O)c2c(NCCNCCO)ccc(NCCNCCO)c21` is reported as 93.8%.
`CC(C)(C)c1ccc(S(=O)(=O)c2cnc(SCC(=O)Nc3ccc4c(c3)OCCO4)[nH]c2=O)cc1` gave a remaining activity of 74.4%.
`O=C(O)C1=CC(=C(c2ccc(O)c(C(=O)O)c2)c2ccc(O)c(C(=O)O)c2)C=CC1=O` has a remaining activity of 8.89%.
With `C/C(O)=C(\C#N)C(=O)Nc1ccc(C(F)(F)F)cc1` the remaining activity was 34.5%.
`CCOc1nc2cccc(C(=O)OCc3oc(=O)oc3C)c2n1Cc1ccc(-c2ccccc2-c2noc(=O)[nH]2)cc1` gave a remaining activity of 54.6%.
With `CC(=O)Oc1cccc2c1C(=O)c1c(OC(C)=O)cc(C(=O)O)cc1C2=O` the remaining activity was 58.9%.
With `Cc1c(Cl)cccc1NC(=O)CSc1ncc(S(=O)(=O)c2ccc(C(C)C)cc2)c(=O)[nH]1` the remaining activity was 91.3%.
With `COc1ccc(S(=O)(=O)c2cnc(SCC(=O)Nc3cc(F)ccc3C)[nH]c2=O)cc1Cl` the remaining activity was 78.8%.
For `CSc1ccc(/C=C/c2nc3ccccc3n2S(=O)(=O)c2ccc(Br)cc2)cc1`, the remaining activity was 68.4%.
With `C[C@H]1[C@H](C)CC[C@]2(C(=O)O)CC[C@]3(C)C(=CC[C@@H]4[C@@]5(C)C[C@@H](O)[C@H](O)[C@@](C)(CO)[C@@H]5CC[C@]43C)[C@H]12` the remaining activity was 57.2%.

Set 4
Target: Beta-1 adrenergic receptor (ADRB1, Homo sapiens, UniProt P08588)
UniProt P08588, sequence (whole entry, looked up): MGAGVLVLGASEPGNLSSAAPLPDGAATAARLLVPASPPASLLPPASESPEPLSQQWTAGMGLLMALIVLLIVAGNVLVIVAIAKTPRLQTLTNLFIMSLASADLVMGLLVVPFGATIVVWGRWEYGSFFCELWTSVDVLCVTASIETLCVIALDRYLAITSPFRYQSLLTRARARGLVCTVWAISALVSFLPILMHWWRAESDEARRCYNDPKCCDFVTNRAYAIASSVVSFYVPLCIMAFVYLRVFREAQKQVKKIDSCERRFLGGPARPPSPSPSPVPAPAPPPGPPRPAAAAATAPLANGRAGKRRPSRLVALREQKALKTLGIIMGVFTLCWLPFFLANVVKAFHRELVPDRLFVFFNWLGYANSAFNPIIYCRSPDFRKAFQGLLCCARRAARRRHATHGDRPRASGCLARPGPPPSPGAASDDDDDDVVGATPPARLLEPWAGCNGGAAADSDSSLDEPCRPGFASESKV
Mode: agonist
With `CN(C(=O)c1sc2nc(-c3cccs3)cc(C(F)(F)F)c2c1N)c1ccc(F)cc1` the EC50 was no less than 100 µM.
`CC(=O)NC(Cc1ccc(I)cc1)C(=O)NCC(N)C(=O)c1ccccc1` (centres unmarked) gave an EC50 of no less than 100 µM.
`CCOC(=O)c1ccc(NC(=O)N2Cc3nc[nH]c3C[C@H]2c2nc(C(C)C)no2)cc1` has an EC50 of no less than 100 µM.
`OC(c1ccccc1)c1nc(Nc2ccc(F)cc2)n[nH]1` (centres unmarked) gave an EC50 of 44.7 µM.
The EC50 of `Cc1ccn(-c2ccc(NCC(O)C3CCCCC3)nn2)n1` (centres unmarked) is reported as no less than 100 µM.
`Fc1ccc(-c2c[nH]c([C@@H]3COCCN3Cc3cnc4ccccc4c3)n2)cc1` has an EC50 of no less than 100 µM.
`CCC(=O)NCCCCC(NC(=O)OCc1ccccc1)C(=O)Nc1ccc2c(C)cc(=O)oc2c1` (centres unmarked) has an EC50 of no less than 100 µM.
`COc1ccccc1N1CCC(CNC(=O)c2ccc(C)s2)C1` (centres unmarked) has an EC50 of no less than 100 µM.
The EC50 of `CCCCNCc1ccc(OCC(O)CN2CCSCC2)c(OC)c1` (centres unmarked) is reported as no less than 100 µM.
For `O=C(Nc1ccccc1)c1cc2c(nc1O)CC(c1ccco1)CC2=O` (centres unmarked), the EC50 was no less than 100 µM.
For `OC(c1ccccc1)c1nc(Nc2ccccc2)n[nH]1` (centres unmarked), the EC50 was no less than 100 µM.
`c1cc(-c2cc3c(ccn3Cc3ccncc3)c(N3CCOCC3)n2)cc(N2CCOCC2)c1` gave an EC50 of no less than 100 µM.
With `C=CCn1c(=O)c2cnc(Nc3ccc(N4CCN(C)CC4)cc3)nc2n1-c1cccc(C(C)(C)O)n1` the EC50 was no less than 100 µM.

A few entries again (set 2):
The remaining activity was 89.9% (MAPK12 (Homo sapiens, UniProt P53778)).
It gave 94.8% for remaining activity (MAPK13 (Homo sapiens, UniProt O15264)).
Cyclin-dependent kinase 9, with cyclin T1 (CDK9, Homo sapiens, UniProt P50750) — remaining activity: 27.6%.
For BTK (Homo sapiens, UniProt Q06187): remaining activity read 87.1%.
It gave 95% for remaining activity (AKT3 (Homo sapiens, UniProt Q9Y243)).
